Measurements from different studies.
Numbered parts are unrelated; each lists some results of a single study.

Set 1
Target: RING finger protein unkempt homolog, zinc fingers 1-6, SBP tag (UNK, Homo sapiens, UniProt Q9C0B0, residues 30-357)
Sequence of UniProt Q9C0B0 (30-357, looked up): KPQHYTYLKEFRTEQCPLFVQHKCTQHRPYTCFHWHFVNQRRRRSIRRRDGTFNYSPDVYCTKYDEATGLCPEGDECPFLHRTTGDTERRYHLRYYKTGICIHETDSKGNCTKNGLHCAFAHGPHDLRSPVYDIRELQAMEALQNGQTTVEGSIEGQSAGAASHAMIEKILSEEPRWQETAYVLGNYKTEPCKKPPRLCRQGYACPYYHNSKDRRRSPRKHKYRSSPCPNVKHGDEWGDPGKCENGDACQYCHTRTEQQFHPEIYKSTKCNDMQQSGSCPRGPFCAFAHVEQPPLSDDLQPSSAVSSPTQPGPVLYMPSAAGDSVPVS
Technique: RNA Bind-n-Seq
Molecule type: RNA
Matrix: in vitro
Tested at: 100 nM
Setting: RNA with constant flanks, vertebrate orthologous sites, ends assumed
Reference: input RNA pool
Reading: higher = stronger binding
All sequences stand within: GGGAGUUCUACAGUCCGACGAUC … CAACAGAGGAUUGAGCAUCA
| Oligonucleotide | bound/input enrichment [ratio] |
| --- | --- |
| CGGCUGAUUCGCUCAUCGGGAGGGCCGCACACAUAGCUGUCCUCGAUUCGGAGAUAUUUUUAGAGAAGUUUUUCCUGGUUGCUGCCCUCAAAUAUUUCCAGUAGGACAGAAGCAUCAUUA | 0.412 |
| AGGAAAUGCUGGCUGCAAACCCUCAGGAUCGCCCAGAUGCUUUUGAACUAGAACUCAGAUUAGUACAAAUUGCAUUUAAAGAUAGCAGCUGGGAAACGUGACACAUACAUUGUUUGCAAA | 0.605 |
| GUGGGGAUCGGGGUGGGGUGGGAAGAAGAUGUAUGGAUGUUACUGGCAUUUUUAAGUGUUAAGAGUUUUUUGUGUUGUUGUUGUUUUUUUUCCUCUUGUUUUGUUCUUCCCCUUUAAUUA | 0.936 |
| CAACUCAAUGGUGGAGGGCUCUGAACUCAAGAAGGUUCGUUCAAACUCCAGAAUUUACCAUCGGUACUUUCUGCUGGACGCCGACAUGCAAAGCCUGAGGUGGGAGCCAUCCAAGAAGGA | 0.0909 |
| UGACCGUACAUACAAAAUGUGCUUUGAGUCAUAGGUGUGAAUGAAACCAUAGCUUGAAUAGAAUUCACUUUUAGAACUAUACAACAUAUAAGAACCCAUAAGCCAGAGGUCUGAGUUCUU | 0.703 |
| GUCCUCUGACUGGAUGAAGACGGUACCAAGUUACAACCAAACAAAUAGCUCUCUGGACUUUAGAAAUUAUGUGACGAGAGAUGAGAAUCUGGAACCACUGCCCAAAAACUGGGAAAUGGC | 0.328 |
| CAUUGUACUCUGCUGUAUAAUAAACAAUCUUAGACAUUUAUCAAUUGUUGAUACAAAUGUUAGUCCCUAACCACUUUUUAUAUGUUUUAAAUUUUUGAAAUUCAAGUGUACCUGCCAUAA | 2.64 |
| CUUAAUUAGAAGGUAGCAUACGUUUCAUAAAGAAGAGUCUUUAUAAUUUUAUUUGUCAUAUAGUAUUUUGGAAUUUGUAUAAUGAGGAUGUUUAGAAGCCGUAUCAAUGGCUUUUUUAAC | 0.73 |
| UUCUCUUAGCGAUAGUAUUCCAUCCGUAGCAGAUUCUCACUCGAGUCAUUUUUCUGAGUUCAGUUGCUCAGAUAUGGAAAGUAUGAAAACUUCCUGUAGCCACGGUUCCAGCGACUAUCA | 1.53 |
| GUUAGGUCAUGACCCUUAUAGGCUAGGUCAUGAUGCCUAUAGAUUAGGGCAAGACCCUUAUAGAUUAGGCCAUGAUCCCUACAGACUUACUCCUGAUCCCUAUAGGAUGUCACCUAGACC | 0.394 |
| CUUACUUAGAGGGAAAUAUAUGUUUCAUAAGGAAGAGUCUUGAUAAUUUUGUUUGUCAGAUAGUAUUUUGGAAUUUGUAUGAGGAUGUUUAGAAGCCUUAUAAGUGGCUUUUUUUAACAG | 0.38 |

Set 2
Target: Interferon regulatory factor 5, full length, phosphomimetic (IRF5, Homo sapiens, UniProt Q13568-2, residues 1-514, K96S/S451D/S453D/S456D/S462D)
Technique: protein-binding microarray
Molecule type: double-stranded DNA, one strand shown
Matrix: in vitro
Tested at: 250 nM
Setting: 60-bp whole probe
With: salmon DNA 0.4 mg/ml
Reference: random background probes
Reading: higher = stronger binding
All sequences stand within: GCCTAGCAC … GTCTTGATTCGCTTGACGCTGCTG
| Oligonucleotide | log fluorescence |
| --- | --- |
| TTAGGACTGCTTCTCCATTAGTGCTAG | -0.187 z-score |
| TTAGGTTTCGACAGTGGGTTAGTGCTA | 5.74 z-score |
| TTAGGTTCCCTTTCCCTTTAGTGCTAG | 0.994 z-score |
| GACGATTTCAGTCTAGAGACGTGCTAG | 1.58 z-score |
| TCAGCTCCAGGTTCTCTGACTGTGCTA | -0.65 z-score |
| GACGGACTGCTATTGCTGACGTGCTAG | -0.531 z-score |
| TTAGAACTGAGTTTCGATTCGTGCTAG | 8.98 z-score |
| GACGGATTCGGTATCGGGACGTGCTAG | 1.62 z-score |
| AGTGGTATAGCACTAAGGGAGTGCTAG | -0.191 z-score |
| CTTGCTTTGTGCCTAGCCTTGTGCTAG | -0.52 z-score |
| TCTTCTGGTGTGTCTGAAGAGTGCTAG | -0.0423 z-score |
| TCATTTCCATTTTCTGAAACTGTGCTA | 2.51 z-score |
| GGCTTCCTCTTTCTCTGCTAGTGCTAG | 0.57 z-score |
| TTTTGAAGTTTGGCGTTGACGTGCTAG | 0.353 z-score |
| TCATTTTTTTTTTTACTACTGTGCTAG | 1.06 z-score |
| TCCCTTTCAGTTTTCCTCTGGTGCTAG | 4.22 z-score |
| GACGACATCAGACTGGAGACGTGCTAG | -0.367 z-score |
| CATTGCCTATTTTTCCCCTGGTGCTAG | 0.449 z-score |
| TTAGGTCTCCTTAACCTTTAGTGCTAG | -0.304 z-score |
| TTAGGACTGGGGACTGGGTCAGTGCTA | -0.675 z-score |
| TTAGGTATCCTTATTCTTTAGTGCTAG | 0.38 z-score |
| TTAGGTTCCCTATTCCTTTAGTGCTAG | 0.198 z-score |
| TCACATTTATTTACTCTCACTGTGCTA | 1.22 z-score |
| TTAGGTCACGGACTGGGTTAGTGCTAG | -0.58 z-score |
| TTAGGTATAGGTATCGGTTAGTGCTAG | 4.56 z-score |

Set 3
Target: RNA binding protein fox-1 homolog 2, RRM domain, GST-SBP tag (RBFOX2, Homo sapiens, UniProt O43251-10, residues 100-194)
Technique: RNA Bind-n-Seq
Molecule type: RNA
Matrix: in vitro
Tested at: 365 nM
Setting: natural RNA segment, single round, ends assumed
Reference: no-protein control
Reading: higher = stronger binding
All sequences stand within: GGGAGUUCUACAGUCCGACGAUC … UGGAAUUCUCGGGUGCCAA
Residues (chain): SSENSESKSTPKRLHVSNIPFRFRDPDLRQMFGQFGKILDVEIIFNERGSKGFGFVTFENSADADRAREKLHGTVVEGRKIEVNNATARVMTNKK
| Oligonucleotide | RBNS enrichment (R) |
| --- | --- |
| CCUGCCUCGAGGACUGAUACUGCAGUGACUGCCGUCAGCUCCGACUGCCGCUGAGAAGGGUUGAUCCUGCAUCUGGGUUUGUUUACAGCAAUUCCUGGACUCGGGGGUAU | 0.62 |
| GCUCCAAAGAUAAUUACCCCAACACCUUAUCAAUGCUAUACUUCCUCUCAUAAUGGCAGUGUAGGUAUGUGGGAAGUGUCUGAGAUGGAGGACCAGGGAGUCUUUAGAGG | 0.514 |
| AAAAAAAUUCAAGUUUUGUUCUUAGGAUGUCCAAUAGAAGAUAACUGUGGAUGAUAACUAAUUCUAAUUGUUGAAGGGGGAAAAAAACCCAAACCUUGGCCUUUCUGCAA | 0.796 |
| CCUCUAUCUUGCAUGGGAAGGAGGGAAAUAUGCGUUAUUUACUGUAAAAAAAUGGAAUUUAAAGGAAGGCUUGUGUCACCUUUUGACUAUAAAUAAAUCCUUUCUACUGG | 10.5 |
| GGCUUGAGUGUGUGAAUAUGAUGUGUGCACAUGCUUAAUGAGCGUGCAAGUGUGCACACGUUUGUGGAGAGGAGGGUGUUCUGGCCUGAGAAGGUAAAGAAGAGGCAUGU | 6.21 |
| AGAUGCUGAGGUACUGCCUCGCCUCAUGGGUGUGUCAGGUUUCUACACCUGUGUGCUUUUCUAGAAAAAGCUGCUAAUGGCUGCAACACUAAUCAUGAACACGUUUUUGC | 0.312 |
| UCUUUUUGGUCCAUUCAUUCACUGUUUAAAAGUUUAUGAUUCUUCCAAAAAUGAAUAUAGUUUCCUUUUUCAAAUCUGAAGGCAUGUGGGAAGCAGUGAGCAAAACCUGU | 5.36 |
| UAUGCAUGUUACCUUAUGUGUAUUUAAUCAUGAAACUUAAUUUUUGCACACUUGUUUGUACUGUUUUCUUUGAAAUAAAAGUGACUAAUUUUGUCGUACUCUAUCUGUAA | 21.4 |
| AUGAAUGAAACUAUUACUCCUAAGAAUUACAUUGUAUAGCCCCACAGAUUAAAUUUAAUUAAUUAAUUCAAAACAUGUUAAACGUUACUUUCAUGUACUAUGGAAAAGUA | 1.36 |
| GGUUCCUCUAAUAAGGACCAGCCUUCUACCCUGGUGGAGACCAAAGGCCUCCUCCCGUUUCUCAUCAGCUUGCCUGCUACCACUUUGCCUUCUGGCCUCCAGCUGGGCCA | 0.855 |
| CUUUUGUUUUGGGGGCAGAUUACUUUCAAAAGCAAAUACAAUUCACUUGAAUUUGACAAACUGAAGCAGACAAGUGUUCUGGGUCCUCUGAUAAUUUGGGGUGUUUGGCU | 0.357 |
| GACAGAGCAGGAGGCGGUCUGUCACCUCGGCCACUGCUGACCUGGGCUGGCCUCCCCCAGCCCUCCCGUGGCGGAGCCGGCAGCGAUGCUACAGGCCUAAGUUAUUGUUU | 0.339 |

Set 4
Target: Histone acetyltransferase KAT6A, winged helix 2, GST fusion (KAT6A, Homo sapiens, UniProt Q92794, residues 85-181)
Technique: protein binding microarray
Molecule type: double-stranded DNA, one strand shown
Matrix: in vitro
Tested at: not given
Setting: 8-mer, flanks averaged, mean of 2 arrays, mostly near background
Reference: not given
Reading: higher = stronger binding
Target sequence (chain): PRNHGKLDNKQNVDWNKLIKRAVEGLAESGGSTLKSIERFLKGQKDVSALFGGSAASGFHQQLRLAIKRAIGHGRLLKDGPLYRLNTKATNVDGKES
| Oligonucleotide | E-score |
| --- | --- |
| ATGTACAA | -0.122 |
| CAGTCATC | -0.21 |
| TGTTGGAA | 0.0314 |
| AGAAAAAG | 0.11 |
| CACATGTG | -0.301 |
| AACCAGGA | -0.0902 |
| TGCAACCA | -0.00098 |
| ATATATAC | 0.0365 |
| CCCTACGG | 0.0713 |
| CGTTATCA | -0.0143 |
| AATCCGGT | 0.194 |
| CCCTGAAG | 0.046 |
| CATCCTCA | -0.119 |
| ATCACCCC | -0.177 |
| ACCGACCT | 0.00321 |
| TGATTGCA | 0.01 |
| AGATGGAT | -0.0101 |
| CTGGCGTC | 0.0658 |
| GTATACAC | 0.0873 |
| CCAGGACA | -0.145 |

Repeated from above (set 4):
| Oligonucleotide | E-score |
| --- | --- |
| CCCTACGG | 0.0713 |
| CGTTATCA | -0.0143 |
| AATCCGGT | 0.194 |
| CCCTGAAG | 0.046 |
| CATCCTCA | -0.119 |
| ATCACCCC | -0.177 |
| ACCGACCT | 0.00321 |
| TGATTGCA | 0.01 |
| AGATGGAT | -0.0101 |
| CTGGCGTC | 0.0658 |
| GTATACAC | 0.0873 |
